Assay results of several laboratories.
Lines come from different studies, so protocols differ. Values joined by “and” are separate records of one study, mostly repeats; a detail may differ. Numbers after ± are the reported error. No end group written: not given here.
T1: TOA1/TOA2 1-286; 1-122 (Saccharomyces cerevisiae); chain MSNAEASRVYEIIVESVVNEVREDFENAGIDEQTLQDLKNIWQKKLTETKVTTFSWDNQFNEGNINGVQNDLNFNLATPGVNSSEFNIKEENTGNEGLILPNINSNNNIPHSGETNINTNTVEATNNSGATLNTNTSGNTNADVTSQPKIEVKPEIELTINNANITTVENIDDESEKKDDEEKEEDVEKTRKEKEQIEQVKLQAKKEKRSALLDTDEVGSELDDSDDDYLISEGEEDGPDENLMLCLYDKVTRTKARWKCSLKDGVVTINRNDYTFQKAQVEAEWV; chain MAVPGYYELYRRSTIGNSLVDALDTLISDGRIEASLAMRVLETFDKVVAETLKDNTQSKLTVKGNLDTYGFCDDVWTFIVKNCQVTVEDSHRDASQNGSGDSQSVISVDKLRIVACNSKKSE
B1: glutathione reductase (human); sequence looked up; chain MACRQEPQPQGPPPAAGAVASYDYLVIGGGSGGLASARRAAELGARAAVVESHKLGGTCVNVGCVPKKVMWNTAVHSEFMHDHADYGFPSCEGKFNWRVIKEKRDAYVSRLNAIYQNNLTKSHIEIIRGHAAFTSDPKPTIEVSGKKYTAPHILIATGGMPSTPHESQIPGASLGITSDGFFQLEELPGRSVIVGAGYIAVEMAGILSALGSKTSLMIRHDKVLRSFDSMISTNCTEELENAGVEVLKFSQVKEVKKTLSGLEVSMVTAVPGRLPVMTMIPDVDCLLWAIGRVPNTKDLSLNKLGIQTDDKGHIIVDEFQNTNVKGIYAVGDVCGKALLTPVAIAAGRKLAHRLFEYKEDSKLDYNNIPTVVFSHPPIGTVGLTEDEAIHKYGIENVKTYSTSFTPMYHAVTKRKTKCVMKMVCANKEEKVVGIHMQGLGCDEMLQGFAVAVKMGATKADFDNTVAIHPTSSEELVTLR
B2: peroxiredoxin-2 (human); sequence looked up; chain ASGNARIGKPAPDFKATAVVDGAFKEVKLSDYKGKYVVLFFYPLDFTFVCPTEIIAFSNRAEDFRKLGCEVLGVSVDSQFTHLAWINTPRKEGGLGPLNIPLLADVTRRLSEDYGVLKTDEGIAYRGLFIIDGKGVLRQITVNDLPVGRSVDEALRLVQAFQYTDEHGEVCPAGWKPGSDTIKPNVDDSKEYFSKHN
B3: bicyclic; chain AATCHCRRSCYSTEYSYGTCTVMGINHRFCCL (also: bicyclic or more (positions not given here))
Sequence of UniProt P00760 (whole entry, looked up): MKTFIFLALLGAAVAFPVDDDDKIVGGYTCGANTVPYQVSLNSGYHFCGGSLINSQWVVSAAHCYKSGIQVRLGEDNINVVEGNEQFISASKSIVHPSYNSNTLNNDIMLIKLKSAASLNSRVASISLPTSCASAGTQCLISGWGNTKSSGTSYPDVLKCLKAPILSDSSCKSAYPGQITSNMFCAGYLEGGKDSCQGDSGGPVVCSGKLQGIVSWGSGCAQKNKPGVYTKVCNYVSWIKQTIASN

| Substance | target or system | test | test system | setting | scale | measurement | value |
| --- | --- | --- | --- | --- | --- | --- | --- |
| coproporphyrin I | – | – | human, plasma | concentration not given, control, endogenous | – | Cmax | 0.967 ± 0.044 nM |
| B1 (glutathione reductase) | PP6C (human) | co-immunoprecipitation, IP-MS | CYB5R4 knockout cells | concentration not given | reference: CYB5R4 knockout over parental | log2 fold change | 0.2 |
| caspofungin | – | – | adult ICU patients, mITT, serum | dose not given, day 30 | – | bilirubin | 16.9 µmol/L |
| Polymyxin B | – | LC-MS | Sprague-Dawley rat, right cortex homogenate | intracerebroventricular, 0.75 mg/kg, 1 h | – | brain concentration | 8920 ng/mL and 10000 ng/mL and 11100 ng/mL and 9530 ng/mL and 7910 ng/mL and 7710 ng/mL and 9200 ng/mL and 6820 ng/mL |
| coproporphyrin III | – | UHPLC-MS/MS | human, serum | oral, 20 mg ezetimibe, 1.33 h, geometric mean ezetimibe phase | – | serum concentration | 0.693 nM |
| FNA / CGLSGLGVA-NH2 ([18F]FNA-labelled, C-amide) | – | gamma counting | peptide, glioblastoma mice, skull bone | 60 min | – | tissue uptake | 0.57 %ID/g |
| coproporphyrin I | – | – | human, serum | oral, 20 mg ezetimibe, 5 h, geometric mean ezetimibe alone | reference: at 5 h over pre-dose | concentration ratio | 3.12 |
| enterolactone sulfate | – | – | human, plasma | dose not given, median | – | plasma concentration | 148 nM |
| Teicoplanin | – | measured: stability | human serum | 1 days, 2-6 °C, low QC | – | recovery | 97.7% |
| colistin | Escherichia coli | broth microdilution | clinical isolate RKI-No_443/16 | – | – | MIC | 4 µg/mL |
| regorafenib N-β-glucuronide | – | – | Oatp1b2 knockout mice, plasma | oral, 10 mg/kg regorafenib single dose | – | Cmax | 179 ± 61.4 ng/mL |
| protopine | – | – | empty perfusion system | 360 min | reference: initial amount | loss by adherence | 19.5 ± 8.3% |
| CTOP | – | RP-HPLC | HALO C18 column | 25 µM, formic acid/acetonitrile, 25 min gradient | – | retention time | 5.66 min |
| B2 (peroxiredoxin-2) | CYB5R4 knockout human cells | PP6 interaction, 3xFLAG-PP6C IP-MS | – | concentration not given | reference: CYB5R4 KO over parental | log2 fold change | 0.0435 |
| GAATTCCTATATATTAATGTGGAGCTCCGTTCGTCTCAAGTCAATCGGTCC (dsDNA; 5'-amino-C6 primer) | T1, TOA1/TOA2 1-286; 1-122 (Saccharomyces cerevisiae) | array | double-stranded DNA, one strand shown | TFIIA alone | – | Kd | 66.9 ± 27.3 nM |
| C-peptide | – | – | prepared human sample | one freeze-thaw cycle | reference: untreated control | bias | 13.7% |
| [177Lu]Lu-DOTA-TATE | – | – | mouse serum | up to 24 h, 37 °C | – | remaining compound | > 95% |
| B3 | – | sedimentation velocity ultracentrifugation | 10 mM sodium phosphate | 160 µM, pH 7.4, 20 °C | – | molecular mass | 4.36 kDa |
| Pexiganan | Serine protease 1 (PRSS1, Bos taurus, UniProt P00760) | LC-SLIPS | synthetic urine | 0.1 mg/mL, pH 6.0, bovine trypsin, added: 500 ng/mL trypsinogen and 0.2 U/mL enterokinase | – | sliding time | 72 s |
| Fluorescein isothiocyanate | – | confocal imaging | cargo-loaded PSP-2 coacervates in Opti-MEM | concentration not given, added: cargo 5 µM | – | saturation concentration | 10 to 25 µM |

Repeated from above:
| Substance | target or system | test | test system | setting | scale | measurement | value |
| --- | --- | --- | --- | --- | --- | --- | --- |
| [177Lu]Lu-DOTA-TATE | – | – | mouse serum | up to 24 h, 37 °C | – | remaining compound | > 95% |
| B3 | – | sedimentation velocity ultracentrifugation | 10 mM sodium phosphate | 160 µM, pH 7.4, 20 °C | – | molecular mass | 4.36 kDa |
| Pexiganan | Serine protease 1 (PRSS1, Bos taurus, UniProt P00760) | LC-SLIPS | synthetic urine | 0.1 mg/mL, pH 6.0, bovine trypsin, added: 500 ng/mL trypsinogen and 0.2 U/mL enterokinase | – | sliding time | 72 s |
